Experimental data collected from several papers.
Lines come from different studies, so protocols differ. Numbers after ± are the reported error. ≈ marks a conversion by molar mass, not a printed value.

Structure (SMILES)	assay	system	setting	scale	endpoint	result
Cc1ccc2[nH]c(=O)c(CC(=O)O)c(-c3ccccc3)c2c1	potentiometric, initial protocol	–	cation species	–	logP	1.86
CC(C)[C@H](NC(=O)[C@@H]1CCCN1C(=O)[C@H](CCCNC(=N)N)NC(=O)[C@H](CS)NC(=O)[C@H](Cc1c[nH]c2ccccc12)NC(=O)[C@H](CCCNC(=N)N)NC(=O)[C@@H](Cc1ccccc1)NC(=O)[C@H](Cc1c[nH]cn1)NC(=O)[C@H](CCC(=O)O)NC(=O)[C@H](CS)NC(=O)[C@H](CS)NC(=O)[C@H](CCCCN)NC(=O)[C@@H]1CC(=O)N[C@@H](CCCNC(=N)N)C(=O)N[C@@H]([C@@H](C)O)C(=O)N[C@@H](CC(=O)O)C(=O)N[C@H](Cc2ccc(O)cc2)C(=O)N1)C(N)=O [technetium-99m labelled]	–	female C57 mouse, B16/F1 melanoma, intestines	intravenous, dose not given, 2 h, together with: NDP-MSH 10 µg co-injected	–	tissue uptake	1.16 ± 0.61 %ID
COc1ccc(-c2nc(OCC(F)(F)F)nn2-c2ccc(OC)cc2)cc1 [carbon-11 labelled]	PET	rhesus monkey, whole brain	iv, dose not given, baseline	–	peak brain radioactivity	4.29 SUV
C[C@]12CC[C@@H]3c4ccc(O)cc4CC[C@H]3[C@@H]1C[C@@H](O)[C@@H]2O	GC-MS	breast cancer women on NSAI, serum	vaginal, 0.03 mg, 4 h, day 0	–	maximum serum concentration	0.0675 ng/mL
CN1CC[C@@H](NC(=O)Nc2ccc(C#N)cc2)C[C@@H]1c1nc2ccccc2[nH]1	–	human, normal hepatic function, fasted, plasma	oral, 100 mg single dose, geometric mean, fu × total	–	unbound Cmax	72.8 ng/mL
CC(C)=CCC[C@](C)(O[C@@H]1O[C@H](CO)[C@@H](O)[C@H](O)[C@H]1O)[C@H]1CC[C@]2(C)[C@@H]1[C@H](O)C[C@@H]1[C@@]3(C)CC[C@H](O)C(C)(C)[C@@H]3[C@@H](O[C@@H]3O[C@H](CO)[C@@H](O)[C@H](O)[C@H]3O[C@@H]3O[C@@H](C)[C@H](O)[C@@H](O)[C@H]3O)C[C@]12C	–	rat, extracted plasma QC samples	0.1 µg/mL, 24 h, 15 °C, autosampler	–	post-preparative stability accuracy	94.7 ± 7.5%
Nc1ccn([C@@H]2O[C@H](CO)[C@@H](O)C2(F)F)c(=O)n1	–	THU-treated rat plasma	125.00 ng/mL, -80 to 20 °C, three freeze-thaw cycles, mid QC	–	measured concentration	134 ± 11.6 ng/mL
CC1=C2C[C@H]3[C@@H](CC[C@@H]4C[C@H](NS(C)(=O)=O)CC[C@@]43C)[C@@H]2CC[C@@]2(C1)O[C@@H]1C[C@H](C)CN[C@H]1[C@H]2C	–	patients, plasma	oral, 40 mg daily, day 22, cycle 1	–	Tmax	5 h
CC(C)C[C@H]1C(=O)NCc2ccc([nH]2)CN[C@@H](Cc2ccccc2)C(=O)N[C@@H](C)C(=O)N1C	–	PAMPA	100 µM, 17 h, pH 6.4	–	Papp	7.59 ×10⁻⁶ cm/s
COc1cc2c(cc1OC)[C@@H]1Cc3ccc(OC)c(OC)c3CN1CC2	–	rat plasma QC sample	640 ng/mL nominal, 24 h, 23 °C, medium QC level storage stability	–	measured concentration	644 ± 11.6 ng/mL
COc1cc2c(cc1OC)CN(CCc1ccc(NC(=O)c3cccc4c(=O)c5cccc(OC)c5[nH]c34)cc1)CC2	–	Solutol	24 h, 37 °C	–	solubility	850 ± 60 µg/mL (≈ 1510 µM)
Cc1nc2cccc(OCC(C)(C)C(=O)NC(C)C)c2c(N)c1C(=O)O	–	Sprague-Dawley rat, plasma	oral, 100 mg/kg/day	–	AUC(0-t)	232 ng·h/mL
NC(=O)OCC(COC(N)=O)c1ccccc1	–	Sprague-Dawley rat, male, liver	oral, 300 mg/kg, 6 h, single low dose	direction not given	hepatocyte vacuolization score	0
CC[C@H](C)[C@@H]1NC(=O)[C@H](Cc2ccc(O)cc2)NC(=O)[C@@H](N)CSSC[C@@H](C(=O)N2CCC[C@H]2C(=O)N[C@@H](CC(C)C)C(=O)NCC(N)=O)NC(=O)[C@H](CC(N)=O)NC(=O)[C@H](CCC(N)=O)NC1=O	microdialysis, radioimmunoassay	knock-out male mice lacking compound, amygdala extracellular fluid	intraperitoneal, 12 µg total, time to half of Cmax	–	half-life	14.7 ± 1.7 min
CCCOc1ccc([C@H]2CNC(=O)N2c2ccc3[nH]cnc3c2)cc1	–	human, elderly, fasted, cerebrospinal fluid	oral, 500 mg twice daily, tablet, 12 h, day 11, minimum, estimated	–	CSF concentration	26.2 ng/mL
O=C(O)CC[C@H]1CC[C@@](c2cc(F)ccc2F)(S(=O)(=O)c2ccc(Cl)cc2)CC1	ELISA	human, serum	dose not given	–	dalotuzumab trough serum concentration	no effect
C[C@H](Oc1ccc(-c2nc(-c3ccc4[nH]cnc4c3)no2)cc1C(F)(F)F)C(F)(F)F	–	cynomolgus monkey, aneurysm model, plasma	0.1 mg/kg once daily, 8 h post-dose, 3 months dosing	–	plasma concentration	19 ± 3.4 nM
COc1ccc(-c2oc3c(OC)c(OC)cc(O)c3c(=O)c2OC)cc1OC	–	C57BL/6 mouse, male, feces	oral, 1% w/w in diet, 6 weeks, orange peel extract diet	baseline: content in orange peel	tissue to peel content ratio	224%

Structure (SMILES)	assay	system	setting	scale	endpoint	result
C[N+]1(CC(=O)OC2CCCCCCCCC2)CCCCC1.[I-]	metabolic stability	human, liver microsomes	1 µM, pH 7.4	–	half-life	7.7 min
CCN(CC)CCNC(=O)c1c(C)[nH]c(/C=C2\C(=O)Nc3ccc(F)cc32)c1C	–	human, plasma	oral, 15 mg/m2, day 28	–	minimum trough plasma concentration	16.1 ng/mL
CN(CCC(=O)O)C(=O)c1ccc2c(c1)CC[C@@H]1[C@@H]2CC[C@]2(C)C(c3cncc(F)c3)=CC[C@@H]12	refers to: unbound AUC(0-24) steady state	cynomolgus monkey, female	40 mg/kg	baseline: animal over human at 60 mg BID	exposure margin	~16 fold
CN1CCN(c2ccc3nc(-c4c(N)c5c(F)cccc5[nH]c4=O)[nH]c3c2)CC1	–	NOD/SCID mice, male, blood or plasma	oral, 30 mg/kg once daily, day 1	–	terminal half-life	324 min
NCCCC[C@@H]1NC(=O)[C@@H](Cc2c[nH]c3ccccc23)NC(=O)[C@H](c2ccccc2)NC(=O)[C@@H]2C[C@@H](OC(=O)NCCN)CN2C(=O)[C@H](Cc2ccccc2)NC(=O)[C@H](Cc2ccc(OCc3ccccc3)cc2)NC1=O	radioimmunoassay	healthy human male volunteers, plasma	subcutaneous, 100 µg	–	beta half-life	8.1 ± 1.4 h
C[C@H](N)C(=O)N[C@H](Cc1c[nH]c2ccccc12)C(=O)N[C@@H](Cc1ccccc1)C(=O)N[C@H](C(=O)N1CCC(C(N)=O)CC1)[C@@H](c1ccccc1)c1c[nH]c2ccccc12	RP-HPLC Jupiter Proteo	–	acetonitrile/water TFA gradient	–	HPLC retention	53.2 %B
CC(C)NC[C@@H](C(=O)N1CCN(c2ncnc3c2[C@H](C)C[C@H]3O)CC1)c1ccc(Cl)cc1	–	human, hepatic impairment Healthy (Child-Pugh), plasma	oral, 100 mg single, geometric mean	–	AUC(0-72)	253 ng·h/mL
O=C(CCCCCCC(=O)Nc1ccccc1)NO	–	patients, serum	oral, 800 mg, cycle 1, together with: flavopiridol	–	AUC(0-7 h)	18 µM·h
COC(=O)N[C@H](C(=O)N[C@@H](Cc1ccccc1)[C@@H](O)CN(Cc1ccc(-c2ccccn2)cc1)NC(=O)[C@@H](NC(=O)OC)C(C)(C)C)C(C)(C)C	population PK model	pregnant women, second trimester	oral, median, together with: with tenofovir	–	Vd/F	133 L
CN[C@H](CC(C)C)C(=O)N[C@H]1C(=O)N[C@@H](CC(N)=O)C(=O)N[C@H]2C(=O)N[C@H]3C(=O)N[C@H](C(=O)N[C@H](C(=O)O)c4cc(O)cc(O)c4-c4cc3ccc4O)[C@H](O)c3ccc(c(Cl)c3)Oc3cc2cc(c3O[C@@H]2O[C@H](CO)[C@@H](O)[C@H](O)[C@H]2O[C@H]2C[C@](C)(N)[C@H](O)[C@H](C)O2)Oc2ccc(cc2Cl)[C@H]1O	microdialysis	pig, Danish Landrace, subcutaneous adipose tissue	intravenous, 1000 mg over 100 min, 450 min dosing interval, together with: 1.0 µg/mL MIC	baseline: dosing interval	time above MIC	98%
O=C(c1ccc(OCCN2CCCCC2)cc1)c1c(-c2ccc(O)cc2)sc2cc(O)ccc12	–	healthy humans, plasma	oral, 60 mg, together with: water	–	AUC(0-48 h)	0.0112 µM·h
Cc1[nH]c(=O)c(CNC(=O)c2ccc([N+](=O)[O-])o2)c2c1CCCC2	U-HPLC	20% DMSO in water	–	–	kinetic solubility	204 µg/mL (≈ 614 µM)
CC[C@H](C)[C@@H]1NC(=O)[C@H](CCCCN)NC(=O)[C@H](CCCCN)NC(=O)[C@H](Cc2ccc(O)cc2)NC(=O)[C@H](CC(C)C)NC(=O)[C@@H]2CCCN2C(=O)[C@H](C)NC(=O)CNC(=O)CNC(=O)[C@H](CO)NC(=O)CNC(=O)CNC(=O)[C@H](CO)NC(=O)[C@H](CCCCN)NC(=O)[C@H](CC(C)C)NC(=O)[C@H](CC(C)C)NC(=O)[C@H](CCCCN)NC(=O)[C@H](CCCCN)NC(=O)[C@H]([C@@H](C)CC)NC(=O)[C@H]([C@@H](C)CC)NC(=O)[C@H](CCCCN)NC(=O)[C@H](CCCCN)NC(=O)[C@H](Cc2ccc(O)cc2)NC(=O)[C@H](CC(C)C)NC(=O)[C@@H]2CCCN2C(=O)CNC(=O)CNC(=O)[C@@H](NC(=O)CN)CSSC[C@@H](C(N)=O)NC(=O)[C@H](CC(C)C)NC(=O)[C@H](CCCCN)NC(=O)[C@H](CCCCN)NC(=O)[C@H]([C@@H](C)CC)NC1=O	circular dichroism	aqueous NaF phosphate buffer	50 µM, pH 7.5	–	helicity	33%
CC[C@@H](C)[C@@H]1NC(=O)[C@H]([C@@H](C)CC)NC(=O)[C@@H](Cc2c[nH]c3ccccc23)NC(=O)CCSCC[C@@H](C(=O)N(C)[C@H](CO)CCCN)NC(=O)[C@H](CC(N)=O)NC1=O	–	New Zealand white rabbit, pregnant, fetal blood and plasma	iv bolus, 3.01 mg/kg daily for 7 days	baseline: maternal maximum	placental transfer	~5%
N=C(N)NCCC[C@H](N)C(=O)N1CCC[C@H]1C(=O)N1CCC[C@H]1C(=O)NCC(=O)N[C@@H](Cc1ccccc1)C(=O)N[C@@H](CO)C(=O)N1CCC[C@H]1C(=O)N[C@@H](Cc1ccccc1)C(=O)O	LC-MS/MS	human serum	concentration not given, 4 h, room temperature, tube without gel separator	baseline: initial concentration	change in serum concentration	-87.1 ± 5%
CCCCCCCC(=O)OC[C@H](NC(=O)[C@H](CO)NC(=O)CN)C(=O)N[C@H](C(=O)N[C@@H](CC(C)C)C(=O)N[C@@H](CO)C(=O)N1CCC[C@H]1C(=O)N[C@@H](CCC(=O)O)C(=O)N[C@@H](Cc1c[nH]cn1)C(=O)N[C@@H](CCC(N)=O)C(=O)N[C@@H](CCCNC(=N)N)C(=O)N[C@H](C(=O)N[C@@H](CCC(N)=O)C(=O)N[C@@H](CCC(N)=O)C(=O)N[C@@H](CCCNC(=N)N)C(=O)N[C@@H](CCCCN)C(=O)N[C@@H](CCC(=O)O)C(=O)N[C@@H](CO)C(=O)N[C@@H](CCCCN)C(=O)N[C@@H](CCCCN)C(=O)N1CCC[C@H]1C(=O)N1CCC[C@H]1C(=O)N[C@@H](C)C(=O)N[C@@H](CCCCN)C(=O)N[C@@H](CC(C)C)C(=O)N[C@@H](CCC(N)=O)C(=O)N1CCC[C@H]1C(=O)N[C@@H](CCCNC(=N)N)C(=O)O)C(C)C)[C@@H](c1ccccc1)c1c[nH]c2ccccc12	RP-HPLC Jupiter Proteo	–	acetonitrile/water TFA gradient	–	HPLC retention	40.4 %B
C[C@]1(c2nc3c(C(N)=O)cccc3[nH]2)CCCN1	–	male rhesus monkey (Macaca mulatta), CSF and plasma	oral, 5 mg/kg	baseline: CSF over plasma	tissue/plasma ratio	0.57 ± 0.07

Repeated from above:
Structure (SMILES)	assay	system	setting	scale	endpoint	result
COC(=O)N[C@H](C(=O)N[C@@H](Cc1ccccc1)[C@@H](O)CN(Cc1ccc(-c2ccccn2)cc1)NC(=O)[C@@H](NC(=O)OC)C(C)(C)C)C(C)(C)C	population PK model	pregnant women, second trimester	oral, median, together with: with tenofovir	–	Vd/F	133 L
NCCCC[C@@H]1NC(=O)[C@@H](Cc2c[nH]c3ccccc23)NC(=O)[C@H](c2ccccc2)NC(=O)[C@@H]2C[C@@H](OC(=O)NCCN)CN2C(=O)[C@H](Cc2ccccc2)NC(=O)[C@H](Cc2ccc(OCc3ccccc3)cc2)NC1=O	radioimmunoassay	healthy human male volunteers, plasma	subcutaneous, 100 µg	–	beta half-life	8.1 ± 1.4 h
Cc1nc2cccc(OCC(C)(C)C(=O)NC(C)C)c2c(N)c1C(=O)O	–	Sprague-Dawley rat, plasma	oral, 100 mg/kg/day	–	AUC(0-t)	232 ng·h/mL
O=C(O)CC[C@H]1CC[C@@](c2cc(F)ccc2F)(S(=O)(=O)c2ccc(Cl)cc2)CC1	ELISA	human, serum	dose not given	–	dalotuzumab trough serum concentration	no effect
